# Results gathered from unrelated publications.
# ± gives the spread as reported.
# Rhomboid protease AarA: Rhomboid protease AarA (Providencia stuartii, UniProt P46116)
# UniProt P46116, sequence (whole entry, looked up): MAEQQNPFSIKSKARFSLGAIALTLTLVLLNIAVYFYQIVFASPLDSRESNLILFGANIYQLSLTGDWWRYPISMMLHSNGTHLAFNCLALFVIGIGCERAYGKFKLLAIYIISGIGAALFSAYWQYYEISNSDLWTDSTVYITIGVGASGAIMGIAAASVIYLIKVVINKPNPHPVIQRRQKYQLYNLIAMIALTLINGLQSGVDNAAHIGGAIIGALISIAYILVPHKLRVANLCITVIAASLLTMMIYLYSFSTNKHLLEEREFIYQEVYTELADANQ
# PPARG ligand-binding domain: Peroxisome proliferator-activated receptor gamma, ligand-binding domain (PPARG, Homo sapiens, UniProt P37231)
# UniProt P37231, sequence (whole entry, looked up): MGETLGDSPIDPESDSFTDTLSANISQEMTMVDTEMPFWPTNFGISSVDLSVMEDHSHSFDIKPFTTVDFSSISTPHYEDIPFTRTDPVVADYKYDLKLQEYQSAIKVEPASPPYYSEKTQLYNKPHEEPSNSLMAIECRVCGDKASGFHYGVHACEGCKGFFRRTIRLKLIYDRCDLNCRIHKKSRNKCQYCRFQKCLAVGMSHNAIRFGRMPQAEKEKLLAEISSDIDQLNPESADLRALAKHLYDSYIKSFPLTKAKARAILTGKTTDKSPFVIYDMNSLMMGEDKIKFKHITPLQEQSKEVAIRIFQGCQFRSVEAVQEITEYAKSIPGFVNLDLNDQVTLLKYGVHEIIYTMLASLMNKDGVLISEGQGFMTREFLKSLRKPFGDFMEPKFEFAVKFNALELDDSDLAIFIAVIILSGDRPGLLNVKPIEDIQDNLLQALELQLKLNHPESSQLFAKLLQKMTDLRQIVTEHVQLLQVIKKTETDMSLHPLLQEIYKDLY
# PPARG: Peroxisome proliferator-activated receptor gamma (PPARG, Homo sapiens, UniProt P37231)
# UniProt P43358, sequence (whole entry, looked up): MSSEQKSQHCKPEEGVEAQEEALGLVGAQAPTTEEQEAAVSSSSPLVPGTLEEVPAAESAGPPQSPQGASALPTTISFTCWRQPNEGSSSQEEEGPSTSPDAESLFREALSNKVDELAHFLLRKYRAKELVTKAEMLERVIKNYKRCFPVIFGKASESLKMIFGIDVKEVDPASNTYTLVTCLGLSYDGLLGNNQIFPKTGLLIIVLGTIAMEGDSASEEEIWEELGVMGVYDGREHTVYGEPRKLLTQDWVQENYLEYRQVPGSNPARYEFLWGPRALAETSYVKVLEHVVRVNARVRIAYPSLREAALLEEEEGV
# UniProt Q9NXS2, sequence (whole entry, looked up): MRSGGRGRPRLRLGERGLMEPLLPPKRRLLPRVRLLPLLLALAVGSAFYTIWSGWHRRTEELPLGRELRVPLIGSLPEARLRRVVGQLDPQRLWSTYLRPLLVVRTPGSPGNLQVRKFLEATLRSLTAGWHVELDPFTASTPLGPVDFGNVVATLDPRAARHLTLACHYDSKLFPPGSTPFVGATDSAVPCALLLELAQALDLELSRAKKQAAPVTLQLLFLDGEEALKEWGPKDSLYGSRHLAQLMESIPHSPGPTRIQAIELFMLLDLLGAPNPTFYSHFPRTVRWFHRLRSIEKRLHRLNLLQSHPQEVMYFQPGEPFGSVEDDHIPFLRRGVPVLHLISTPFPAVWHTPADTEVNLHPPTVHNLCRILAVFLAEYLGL
# UniProt P15735, sequence (whole entry, looked up): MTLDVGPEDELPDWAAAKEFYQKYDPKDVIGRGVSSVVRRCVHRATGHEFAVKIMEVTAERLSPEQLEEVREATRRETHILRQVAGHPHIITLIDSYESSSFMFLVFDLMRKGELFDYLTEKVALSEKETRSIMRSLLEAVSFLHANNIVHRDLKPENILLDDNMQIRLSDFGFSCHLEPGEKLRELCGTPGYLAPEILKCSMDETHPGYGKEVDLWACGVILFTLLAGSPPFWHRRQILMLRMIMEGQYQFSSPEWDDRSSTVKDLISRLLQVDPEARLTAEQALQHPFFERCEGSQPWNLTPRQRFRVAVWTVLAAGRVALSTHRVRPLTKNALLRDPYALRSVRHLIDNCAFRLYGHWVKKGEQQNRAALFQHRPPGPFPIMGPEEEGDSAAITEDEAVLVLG
# UniProt Q92793, sequence (whole entry, looked up): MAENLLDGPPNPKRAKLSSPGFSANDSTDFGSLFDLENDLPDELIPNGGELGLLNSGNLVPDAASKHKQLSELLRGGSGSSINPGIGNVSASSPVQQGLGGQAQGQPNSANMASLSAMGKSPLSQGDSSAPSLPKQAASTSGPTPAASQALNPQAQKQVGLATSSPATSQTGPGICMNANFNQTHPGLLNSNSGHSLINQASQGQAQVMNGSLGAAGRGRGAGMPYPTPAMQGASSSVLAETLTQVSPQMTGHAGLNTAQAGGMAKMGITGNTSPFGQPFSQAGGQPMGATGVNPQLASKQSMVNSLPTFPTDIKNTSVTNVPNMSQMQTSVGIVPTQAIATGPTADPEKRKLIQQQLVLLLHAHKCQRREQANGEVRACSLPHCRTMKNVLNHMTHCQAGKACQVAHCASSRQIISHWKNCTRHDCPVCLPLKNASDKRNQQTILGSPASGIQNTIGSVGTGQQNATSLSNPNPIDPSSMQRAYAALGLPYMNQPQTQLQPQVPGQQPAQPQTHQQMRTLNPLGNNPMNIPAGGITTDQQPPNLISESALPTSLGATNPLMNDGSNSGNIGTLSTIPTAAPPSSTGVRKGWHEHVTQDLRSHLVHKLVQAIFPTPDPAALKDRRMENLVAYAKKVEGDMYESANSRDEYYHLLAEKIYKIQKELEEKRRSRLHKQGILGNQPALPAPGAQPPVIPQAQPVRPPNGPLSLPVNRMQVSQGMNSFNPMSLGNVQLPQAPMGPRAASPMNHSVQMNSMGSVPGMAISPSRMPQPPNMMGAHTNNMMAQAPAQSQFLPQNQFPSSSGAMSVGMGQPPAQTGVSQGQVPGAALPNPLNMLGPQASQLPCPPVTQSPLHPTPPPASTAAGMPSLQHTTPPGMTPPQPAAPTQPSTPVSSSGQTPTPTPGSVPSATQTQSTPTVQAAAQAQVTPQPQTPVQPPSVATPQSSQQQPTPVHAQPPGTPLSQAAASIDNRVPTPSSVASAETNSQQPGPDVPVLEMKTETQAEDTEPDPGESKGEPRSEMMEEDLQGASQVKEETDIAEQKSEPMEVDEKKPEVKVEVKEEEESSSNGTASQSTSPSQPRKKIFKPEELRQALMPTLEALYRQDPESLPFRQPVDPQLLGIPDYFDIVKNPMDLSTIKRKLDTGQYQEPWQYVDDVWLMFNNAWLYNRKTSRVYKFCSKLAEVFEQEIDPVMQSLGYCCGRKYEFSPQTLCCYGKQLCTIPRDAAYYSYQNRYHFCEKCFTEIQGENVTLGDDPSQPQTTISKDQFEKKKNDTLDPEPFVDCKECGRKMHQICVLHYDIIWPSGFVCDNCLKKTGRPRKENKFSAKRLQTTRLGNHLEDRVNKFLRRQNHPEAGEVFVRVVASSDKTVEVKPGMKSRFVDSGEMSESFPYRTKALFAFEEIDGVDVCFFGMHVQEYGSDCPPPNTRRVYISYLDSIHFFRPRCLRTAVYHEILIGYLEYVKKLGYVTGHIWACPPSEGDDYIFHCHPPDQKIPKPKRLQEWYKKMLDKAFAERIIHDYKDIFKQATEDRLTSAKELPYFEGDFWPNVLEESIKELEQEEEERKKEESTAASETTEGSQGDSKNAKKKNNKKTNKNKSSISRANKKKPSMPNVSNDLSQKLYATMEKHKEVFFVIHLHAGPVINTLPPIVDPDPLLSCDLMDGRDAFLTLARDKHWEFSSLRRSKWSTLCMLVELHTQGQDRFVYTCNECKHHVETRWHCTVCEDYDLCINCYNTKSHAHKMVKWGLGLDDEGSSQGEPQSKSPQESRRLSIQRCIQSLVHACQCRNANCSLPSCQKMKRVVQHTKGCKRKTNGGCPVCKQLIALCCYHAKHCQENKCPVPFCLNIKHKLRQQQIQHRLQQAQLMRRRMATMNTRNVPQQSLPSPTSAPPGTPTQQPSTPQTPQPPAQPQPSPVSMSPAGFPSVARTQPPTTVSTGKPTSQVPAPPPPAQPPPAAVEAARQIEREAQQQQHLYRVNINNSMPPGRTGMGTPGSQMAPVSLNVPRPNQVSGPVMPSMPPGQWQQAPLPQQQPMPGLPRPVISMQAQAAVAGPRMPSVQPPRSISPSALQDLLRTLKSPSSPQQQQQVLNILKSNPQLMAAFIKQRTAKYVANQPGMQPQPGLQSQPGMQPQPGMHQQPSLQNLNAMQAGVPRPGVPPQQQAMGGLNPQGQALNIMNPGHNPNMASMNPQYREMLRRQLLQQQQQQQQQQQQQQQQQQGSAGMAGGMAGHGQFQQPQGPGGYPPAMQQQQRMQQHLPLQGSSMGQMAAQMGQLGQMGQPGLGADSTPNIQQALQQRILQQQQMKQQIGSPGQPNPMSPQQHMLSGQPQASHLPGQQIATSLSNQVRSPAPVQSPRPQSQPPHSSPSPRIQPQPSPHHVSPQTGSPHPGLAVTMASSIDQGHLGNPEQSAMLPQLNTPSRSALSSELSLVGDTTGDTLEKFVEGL
# UniProt P08172, sequence (whole entry, looked up): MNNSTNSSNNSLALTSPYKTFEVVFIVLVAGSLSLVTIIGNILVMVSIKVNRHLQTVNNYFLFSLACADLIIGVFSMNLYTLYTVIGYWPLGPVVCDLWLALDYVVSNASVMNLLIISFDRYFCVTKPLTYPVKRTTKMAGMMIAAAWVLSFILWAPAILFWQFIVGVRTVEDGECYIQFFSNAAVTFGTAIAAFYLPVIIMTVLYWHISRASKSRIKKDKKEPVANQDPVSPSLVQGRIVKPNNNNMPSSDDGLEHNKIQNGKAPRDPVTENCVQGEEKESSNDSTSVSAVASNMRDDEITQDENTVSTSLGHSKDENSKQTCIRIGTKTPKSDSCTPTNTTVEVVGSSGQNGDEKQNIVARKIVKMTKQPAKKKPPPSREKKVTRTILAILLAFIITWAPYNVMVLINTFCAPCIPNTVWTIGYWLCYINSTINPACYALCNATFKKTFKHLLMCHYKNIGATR
SMILES,target,test,system,setting,IC50 [nM]
O=C(Nc1cc(Cl)ccc1OCC1CC1)C(C(F)(F)F)C(F)(F)F,Rhomboid protease AarA,"enzyme activity, inhibitor, fluorescence",,,2200
Cc1c(Cc2ccc(OC(C)(C)C(=O)O)cc2)c2ccc(C(=O)N[C@@H](C)c3cccc(C4CC4)c3)cc2n1C,PPARG ligand-binding domain,"reporter gene, luciferase reporter","HEK293T, Gal4-PPARγ LBD",,1620
O=C(Nc1ccc(F)c(Cl)c1)C(C(F)(F)F)C(F)(F)F,Rhomboid protease AarA,"enzyme activity, inhibitor, fluorescence",,,7400
Cc1cncn1Cc1ccc(Oc2cccc(Cl)c2)cc1,"Glutaminyl-peptide cyclotransferase-like protein (Homo sapiens, UniProt Q9NXS2)",,,,110
COc1cc(-c2cc(C(C)=O)n3ccccc23)c(OC)cc1Cn1ccnc1,"CREBBP (Homo sapiens, UniProt Q92793)",inhibitor,,,690
Cc1c(Cc2cccc(OC(C)(C)C(=O)O)c2)c2ccc(C(=O)N[C@@H](C)c3cccc(C(C)(C)C)c3)cc2n1CC1CC1,PPARG ligand-binding domain,"reporter gene, luciferase reporter","HEK293T, Gal4-PPARγ LBD",,2070
O=c1sn(Cc2ccccc2)c(=O)n1C1CC1,"FTO (Homo sapiens, UniProt Q9C0B1)","enzyme activity, inhibitor",,,> 100000
Cc1c(Cc2cc(F)cc(OC(C)(C)C(=O)O)c2)c2ccc(C(=O)N[C@@H](C)c3cccc(C(C)(C)C)c3)cc2n1CC(C)C,PPARG,"ligand displacement, TR-FRET",,,2.12
Cc1nn(-c2cccc(N)c2)c(=O)c2cnc(Nc3ccc(N4CCNCC4)cc3)nc12,"PHKG2 (Homo sapiens, UniProt P15735)","kinase activity, inhibitor, SelectScreen kinase profiling",,,3650
Cc1c(Cc2ccc(Cl)c(O[C@H](C)C(=O)O)c2)c2ccc(C(=O)NCc3ccc(C(C)(C)C)cc3)cc2n1C,PPARG ligand-binding domain,"reporter gene, luciferase reporter","HEK293T, Gal4-PPARγ LBD",,20100
CC[C@H](C)[C@@H]1NC(=O)[C@H](Cc2ccccc2)NC(=O)CSC[C@@H](C(N)=O)NC(=O)[C@H](CC(N)=O)NC(=O)[C@H](Cc2c[nH]cn2)NC(=O)[C@H](Cc2ccc(O)cc2)NC(=O)[C@H](C)NC(=O)[C@H](Cc2ccc(F)cc2)NC(=O)[C@H](CC(C)C)NC(=O)[C@H](CCCCN)NC1=O,"Melanoma-associated antigen 4, MAGE homology domain (Homo sapiens, UniProt P43358)","binding, inhibitor, TR-FRET displacement",,with: Alexa647-MTP-1,323 ± 190
Cc1c(Cc2ccc(OC(C)(C)C(=O)O)cc2)c2ccc(C(=O)N[C@@H](C)c3cccc(C(C)(C)C)c3)cc2n1C,PPARG,"ligand displacement, TR-FRET",,,328
Cc1nc2c(F)cc(-c3nc(Nc4ccc(CC(=O)NCCCC(=O)NO)cc4)ncc3F)cc2n1C(C)C,"HDAC1 (Homo sapiens, UniProt Q13547)","enzyme activity, inhibitor",,,5.2
CCOc1ccc(NC(=O)C(C(F)(F)F)C(F)(F)F)cc1,Rhomboid protease AarA,"enzyme activity, inhibitor, fluorescence",,,11000
CC(=O)OC1CCC2(C)C(CCC3(C)C2CC=C2C4C(C)C(C)CCC4(C(=O)O)CCC23C)C1(C)C (stereo not shown),"UGT2B17 (Homo sapiens, UniProt O75795)","enzyme activity, inhibitor",,,> 100000
O=C(CCNC(=O)CNC(=O)CC(c1ccccc1)(c1ccccc1)c1ccccc1)NCC1CCN(C(=O)c2ccc(F)cc2)CC1,"CHRM2 (Homo sapiens, UniProt P08172)","ligand displacement, radioligand",,cell membranes,> 30000

# For quick reference, copied from above:
SMILES,target,test,system,setting,IC50 [nM]
Cc1nn(-c2cccc(N)c2)c(=O)c2cnc(Nc3ccc(N4CCNCC4)cc3)nc12,"PHKG2 (Homo sapiens, UniProt P15735)","kinase activity, inhibitor, SelectScreen kinase profiling",,,3650
